Results collected from several papers.
Parts stem from different laboratories: compare values within a part only. Positions count from the first letter of the parent shown.

Set 1 — technique: protein binding microarray; molecule type: double-stranded DNA, one strand shown; matrix: in vitro; concentration: not given; reference: not given; reading: higher = stronger binding
Target: Histone acetyltransferase KAT6A, winged helix 1, GST fusion (KAT6A, Homo sapiens, UniProt Q92794, residues 1-85)
Setting: 8-mer, flanks averaged, mean of 2 arrays, mostly near background
Construct (chain): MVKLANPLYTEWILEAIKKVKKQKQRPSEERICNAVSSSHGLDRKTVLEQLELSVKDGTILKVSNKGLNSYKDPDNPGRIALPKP
| Oligonucleotide | E-score |
| --- | --- |
| CCTTAGAG | -0.116 |
| ACGGATAT | 0.0792 |
| GAAAGTTA | -0.151 |
| CAAGAAAG | -0.227 |
| CGCCTTCC | 0.145 |
| CTCCGACA | -0.0573 |
| CGTCTGTC | 0.117 |
| AAGCCAAA | -0.123 |
| AGGATTCA | -0.136 |

Set 2 — technique: protein-binding microarray; molecule type: double-stranded DNA, one strand shown; matrix: in vitro; concentration: 250 nM; setting: 60-bp whole probe; together with: salmon DNA 0.4 mg/ml; reference: random background probes; reading: higher = stronger binding; constant ends, left off below: GCCTAGCAC … GTCTTGATTCGCTTGACGCTGCTG
Target: Interferon regulatory factor 5, full length, phosphomimetic (IRF5, Homo sapiens, UniProt Q13568-2, residues 1-514, K96S/S451D/S453D/S456D/S462D)
| Oligonucleotide | log fluorescence [z-score] |
| --- | --- |
| TCATTTTTTTTTTACTTACTGTGCTAG | 1.26 |
| TTAGGTCTCGGTTTCCGTTAGTGCTAG | 1.45 |
| TCAGATGTGGGACTCACACTGTGCTAG | -0.633 |
| AGGCCTCTGGGATCCCAGTCGGTGCTA | -0.589 |
| TCACTTTTCCCCCTAGTACTGTGCTAG | 1.18 |
| CACGATTTCAGTCTCGAGACGTGCTAG | 1.34 |
| GACGGTATCGCTATCGGGACGTGCTAG | 3.07 |
| GACGGTTTCGGTCCCGGGACGTGCTAG | 9.31 |

Set 3 — target: CCNF, cyclin fold, Cln2 fusion (human); technique: yeast growth competition, sequencing; matrix: yeast; setting: strong parent motif; reference: not given; reading: higher = stronger binding
Parent: GMNC docking peptide (human); KNAKRNLSSEFAN
| Substitution | normalised enrichment score |
| --- | --- |
| R5I | 0.548 |
| K4V | 0.754 |
| S8M | 2.37 |
| S8K | 0.575 |
| E10N | 0.89 |
| A3N | 0.716 |
| S8P | 0.355 |

Other studies, line by line
| Substance | target | test | system | setting | how to read | endpoint | result |
| --- | --- | --- | --- | --- | --- | --- | --- |
| PhoQ, residues 284 288 289 292 302 303 TSTLRA | PhoP, residues 12 14 15 18 19 LHHVQ (Escherichia coli, UniProt P23836) | Sort-seq, measured: YFP reporter | E. coli | PhoQ-PhoP variant library, together with: 10 µM Mg2+ | reference: high Mg2+ state, higher = stronger signaling | fold induction | 1.31 |

For quick reference, copied from above (set 1):
| Oligonucleotide | E-score |
| --- | --- |
| AAGCCAAA | -0.123 |
| CGCCTTCC | 0.145 |
| CAAGAAAG | -0.227 |
| CTCCGACA | -0.0573 |
